# Experimental data pooled from the literature.
# Sequences of proteins named here, by UniProt entry; tags and fusion partners are left off. A change or cut given only in a name is not applied to a line headed by its entry. Residues count along the entry.
# UniProt P04150, whole entry: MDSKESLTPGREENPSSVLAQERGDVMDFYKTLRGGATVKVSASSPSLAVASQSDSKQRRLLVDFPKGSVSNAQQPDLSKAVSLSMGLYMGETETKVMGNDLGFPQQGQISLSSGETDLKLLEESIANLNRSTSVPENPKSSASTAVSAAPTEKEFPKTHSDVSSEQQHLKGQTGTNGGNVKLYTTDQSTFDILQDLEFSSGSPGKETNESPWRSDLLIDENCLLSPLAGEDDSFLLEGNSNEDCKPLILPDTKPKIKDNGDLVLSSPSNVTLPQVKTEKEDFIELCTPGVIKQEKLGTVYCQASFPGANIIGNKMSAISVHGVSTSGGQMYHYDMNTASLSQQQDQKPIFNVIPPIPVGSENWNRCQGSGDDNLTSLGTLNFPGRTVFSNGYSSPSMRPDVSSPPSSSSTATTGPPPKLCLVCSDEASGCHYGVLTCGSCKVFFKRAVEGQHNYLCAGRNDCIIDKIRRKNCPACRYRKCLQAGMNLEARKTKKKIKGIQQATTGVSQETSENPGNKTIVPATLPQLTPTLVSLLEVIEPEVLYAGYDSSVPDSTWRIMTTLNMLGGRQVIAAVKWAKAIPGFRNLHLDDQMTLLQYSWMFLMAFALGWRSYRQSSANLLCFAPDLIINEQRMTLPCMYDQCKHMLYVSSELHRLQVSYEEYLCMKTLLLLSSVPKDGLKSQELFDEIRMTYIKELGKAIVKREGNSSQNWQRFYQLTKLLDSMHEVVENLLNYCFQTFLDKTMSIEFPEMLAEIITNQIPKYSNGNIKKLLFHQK
# UniProt P10636, whole entry, looked up: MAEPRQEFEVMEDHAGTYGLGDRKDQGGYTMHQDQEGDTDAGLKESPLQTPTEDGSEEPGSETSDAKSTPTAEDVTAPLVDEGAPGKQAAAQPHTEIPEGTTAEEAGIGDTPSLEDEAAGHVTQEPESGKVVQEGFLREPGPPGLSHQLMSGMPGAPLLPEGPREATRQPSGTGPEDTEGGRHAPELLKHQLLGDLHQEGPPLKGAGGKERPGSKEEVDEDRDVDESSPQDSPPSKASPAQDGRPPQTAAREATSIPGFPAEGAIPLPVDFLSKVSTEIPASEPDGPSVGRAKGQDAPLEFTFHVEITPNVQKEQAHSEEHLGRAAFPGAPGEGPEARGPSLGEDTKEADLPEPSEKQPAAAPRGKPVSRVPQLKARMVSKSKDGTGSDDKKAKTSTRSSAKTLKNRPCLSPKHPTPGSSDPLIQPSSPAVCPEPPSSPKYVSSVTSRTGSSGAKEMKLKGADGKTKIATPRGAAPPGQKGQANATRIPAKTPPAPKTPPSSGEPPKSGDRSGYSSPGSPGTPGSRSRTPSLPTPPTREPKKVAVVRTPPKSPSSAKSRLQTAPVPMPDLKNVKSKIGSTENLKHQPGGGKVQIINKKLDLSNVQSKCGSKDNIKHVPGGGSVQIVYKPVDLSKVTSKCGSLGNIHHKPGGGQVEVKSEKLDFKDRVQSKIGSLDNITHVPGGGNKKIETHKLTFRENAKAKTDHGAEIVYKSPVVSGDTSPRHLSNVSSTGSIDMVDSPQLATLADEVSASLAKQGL
# UniProt Q62666, whole entry: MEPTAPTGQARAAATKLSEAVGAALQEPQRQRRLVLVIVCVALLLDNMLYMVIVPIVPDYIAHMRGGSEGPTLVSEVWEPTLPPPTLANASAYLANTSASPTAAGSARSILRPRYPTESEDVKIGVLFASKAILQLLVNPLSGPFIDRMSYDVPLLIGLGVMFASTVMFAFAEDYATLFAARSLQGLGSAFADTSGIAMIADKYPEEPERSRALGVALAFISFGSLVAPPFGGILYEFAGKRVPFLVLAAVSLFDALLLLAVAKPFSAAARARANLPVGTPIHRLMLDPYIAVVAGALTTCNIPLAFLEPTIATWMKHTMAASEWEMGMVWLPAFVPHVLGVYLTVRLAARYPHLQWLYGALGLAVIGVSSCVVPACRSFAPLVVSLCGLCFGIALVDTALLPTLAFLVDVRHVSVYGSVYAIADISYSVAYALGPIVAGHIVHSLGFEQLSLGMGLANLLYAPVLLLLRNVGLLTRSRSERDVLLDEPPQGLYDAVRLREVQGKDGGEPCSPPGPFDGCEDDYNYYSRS
# UniProt Q9QWY8, 325-724 limits assumed: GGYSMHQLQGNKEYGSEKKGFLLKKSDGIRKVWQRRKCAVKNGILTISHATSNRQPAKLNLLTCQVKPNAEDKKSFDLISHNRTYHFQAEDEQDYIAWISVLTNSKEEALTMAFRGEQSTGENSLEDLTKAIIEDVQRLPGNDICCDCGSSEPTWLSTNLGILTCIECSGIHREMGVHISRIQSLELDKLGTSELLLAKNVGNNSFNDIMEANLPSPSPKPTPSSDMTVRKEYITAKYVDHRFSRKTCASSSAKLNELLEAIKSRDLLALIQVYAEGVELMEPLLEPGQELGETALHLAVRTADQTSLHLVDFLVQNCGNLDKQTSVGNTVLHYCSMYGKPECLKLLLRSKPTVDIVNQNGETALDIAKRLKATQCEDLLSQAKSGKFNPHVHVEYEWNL
# UniProt P51452, whole entry: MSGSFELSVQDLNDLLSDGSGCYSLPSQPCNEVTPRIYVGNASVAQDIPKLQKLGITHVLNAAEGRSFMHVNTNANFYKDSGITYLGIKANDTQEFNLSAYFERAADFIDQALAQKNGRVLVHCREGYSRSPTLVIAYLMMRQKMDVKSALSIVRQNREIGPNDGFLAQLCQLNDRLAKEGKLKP
# UniProt Q8TCT1, 1-292 isoform 3: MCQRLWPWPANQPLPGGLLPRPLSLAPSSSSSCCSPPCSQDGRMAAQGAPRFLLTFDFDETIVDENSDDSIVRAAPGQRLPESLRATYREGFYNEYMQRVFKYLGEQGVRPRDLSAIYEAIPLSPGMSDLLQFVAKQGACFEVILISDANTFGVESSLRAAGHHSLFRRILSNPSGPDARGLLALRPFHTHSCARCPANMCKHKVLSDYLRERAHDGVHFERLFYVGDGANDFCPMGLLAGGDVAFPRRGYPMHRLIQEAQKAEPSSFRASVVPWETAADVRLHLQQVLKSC
# UniProt P18031, whole entry: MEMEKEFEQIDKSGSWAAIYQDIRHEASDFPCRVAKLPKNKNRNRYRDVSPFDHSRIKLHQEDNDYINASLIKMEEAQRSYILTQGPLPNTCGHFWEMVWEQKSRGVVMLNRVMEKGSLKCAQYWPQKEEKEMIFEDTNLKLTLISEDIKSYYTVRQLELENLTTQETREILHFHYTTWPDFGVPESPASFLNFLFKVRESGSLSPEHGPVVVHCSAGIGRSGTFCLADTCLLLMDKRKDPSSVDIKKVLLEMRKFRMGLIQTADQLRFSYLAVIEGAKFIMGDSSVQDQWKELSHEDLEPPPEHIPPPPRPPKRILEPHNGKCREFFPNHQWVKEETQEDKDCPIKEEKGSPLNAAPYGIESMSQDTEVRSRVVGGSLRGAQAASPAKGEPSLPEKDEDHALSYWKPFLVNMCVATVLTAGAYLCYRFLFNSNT
# UniProt P17706, whole entry: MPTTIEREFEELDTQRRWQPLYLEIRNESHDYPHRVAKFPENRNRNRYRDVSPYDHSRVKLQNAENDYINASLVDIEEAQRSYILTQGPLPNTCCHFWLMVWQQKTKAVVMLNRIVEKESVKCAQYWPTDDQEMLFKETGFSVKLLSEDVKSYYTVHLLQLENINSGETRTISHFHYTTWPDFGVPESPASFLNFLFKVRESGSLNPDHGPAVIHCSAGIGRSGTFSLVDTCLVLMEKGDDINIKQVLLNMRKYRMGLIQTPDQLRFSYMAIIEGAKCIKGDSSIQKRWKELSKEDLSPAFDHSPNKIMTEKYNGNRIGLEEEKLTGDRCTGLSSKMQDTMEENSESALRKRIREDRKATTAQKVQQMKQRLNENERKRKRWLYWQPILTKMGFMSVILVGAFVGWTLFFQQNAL
# UniProt Q9NRA0, whole entry: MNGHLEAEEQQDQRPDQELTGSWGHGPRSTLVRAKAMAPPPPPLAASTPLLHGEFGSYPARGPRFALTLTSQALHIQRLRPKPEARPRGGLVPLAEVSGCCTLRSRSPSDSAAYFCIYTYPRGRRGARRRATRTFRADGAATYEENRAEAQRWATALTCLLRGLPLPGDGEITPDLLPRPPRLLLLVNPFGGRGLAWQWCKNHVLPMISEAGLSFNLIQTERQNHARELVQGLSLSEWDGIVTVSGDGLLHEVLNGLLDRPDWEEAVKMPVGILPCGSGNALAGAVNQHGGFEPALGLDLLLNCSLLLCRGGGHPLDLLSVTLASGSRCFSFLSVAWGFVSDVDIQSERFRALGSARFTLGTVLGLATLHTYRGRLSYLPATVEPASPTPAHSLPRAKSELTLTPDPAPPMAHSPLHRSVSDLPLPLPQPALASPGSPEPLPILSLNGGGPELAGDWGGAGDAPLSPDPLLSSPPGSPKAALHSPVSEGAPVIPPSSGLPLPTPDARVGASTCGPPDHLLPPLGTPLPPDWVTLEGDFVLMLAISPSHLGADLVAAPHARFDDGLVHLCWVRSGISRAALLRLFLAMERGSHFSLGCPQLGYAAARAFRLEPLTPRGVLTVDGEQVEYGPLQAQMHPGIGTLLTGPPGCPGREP
# UniProt Q9H2K8, whole entry: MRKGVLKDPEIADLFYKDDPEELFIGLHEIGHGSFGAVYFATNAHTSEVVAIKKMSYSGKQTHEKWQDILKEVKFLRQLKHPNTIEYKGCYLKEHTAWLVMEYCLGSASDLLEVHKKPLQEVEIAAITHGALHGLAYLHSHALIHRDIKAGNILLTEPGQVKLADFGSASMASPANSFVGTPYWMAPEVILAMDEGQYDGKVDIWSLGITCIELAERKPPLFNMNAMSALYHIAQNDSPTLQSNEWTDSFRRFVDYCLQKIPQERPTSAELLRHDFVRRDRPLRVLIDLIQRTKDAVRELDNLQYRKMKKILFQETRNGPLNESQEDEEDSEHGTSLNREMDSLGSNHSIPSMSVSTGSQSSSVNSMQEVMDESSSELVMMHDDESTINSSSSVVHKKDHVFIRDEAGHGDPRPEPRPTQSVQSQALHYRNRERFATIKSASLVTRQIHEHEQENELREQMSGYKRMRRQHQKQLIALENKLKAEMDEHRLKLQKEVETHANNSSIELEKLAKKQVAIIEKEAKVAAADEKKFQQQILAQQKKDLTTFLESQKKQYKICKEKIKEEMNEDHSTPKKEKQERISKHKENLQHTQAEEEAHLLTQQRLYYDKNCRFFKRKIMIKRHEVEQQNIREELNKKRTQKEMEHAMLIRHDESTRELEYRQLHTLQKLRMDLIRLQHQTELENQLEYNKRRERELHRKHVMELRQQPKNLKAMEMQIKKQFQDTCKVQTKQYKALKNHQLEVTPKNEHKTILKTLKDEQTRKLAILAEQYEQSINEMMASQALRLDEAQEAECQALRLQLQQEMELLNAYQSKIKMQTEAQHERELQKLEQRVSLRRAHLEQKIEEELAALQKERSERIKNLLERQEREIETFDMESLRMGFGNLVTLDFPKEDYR
# UniProt P23204, whole entry: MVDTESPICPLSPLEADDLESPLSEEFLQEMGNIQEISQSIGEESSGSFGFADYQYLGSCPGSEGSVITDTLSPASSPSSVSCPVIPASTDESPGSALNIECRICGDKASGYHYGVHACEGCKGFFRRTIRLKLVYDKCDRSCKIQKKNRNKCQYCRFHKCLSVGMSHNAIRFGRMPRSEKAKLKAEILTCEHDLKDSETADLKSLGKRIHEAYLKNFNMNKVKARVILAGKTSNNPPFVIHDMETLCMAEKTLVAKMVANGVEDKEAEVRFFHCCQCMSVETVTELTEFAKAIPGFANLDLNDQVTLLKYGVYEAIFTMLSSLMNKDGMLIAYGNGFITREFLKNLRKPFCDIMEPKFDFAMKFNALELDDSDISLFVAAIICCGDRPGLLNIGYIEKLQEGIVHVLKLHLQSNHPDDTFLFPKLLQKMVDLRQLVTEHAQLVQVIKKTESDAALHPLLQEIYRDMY
# UniProt O14618, whole entry: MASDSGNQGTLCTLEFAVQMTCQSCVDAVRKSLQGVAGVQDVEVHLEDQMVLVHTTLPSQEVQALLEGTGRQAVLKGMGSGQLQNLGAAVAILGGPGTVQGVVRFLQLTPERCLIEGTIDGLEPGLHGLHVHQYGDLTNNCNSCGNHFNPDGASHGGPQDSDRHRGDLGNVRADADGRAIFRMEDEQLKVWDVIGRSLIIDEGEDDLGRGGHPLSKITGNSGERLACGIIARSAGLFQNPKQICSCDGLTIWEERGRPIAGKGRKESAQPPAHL
# UniProt P50406, whole entry: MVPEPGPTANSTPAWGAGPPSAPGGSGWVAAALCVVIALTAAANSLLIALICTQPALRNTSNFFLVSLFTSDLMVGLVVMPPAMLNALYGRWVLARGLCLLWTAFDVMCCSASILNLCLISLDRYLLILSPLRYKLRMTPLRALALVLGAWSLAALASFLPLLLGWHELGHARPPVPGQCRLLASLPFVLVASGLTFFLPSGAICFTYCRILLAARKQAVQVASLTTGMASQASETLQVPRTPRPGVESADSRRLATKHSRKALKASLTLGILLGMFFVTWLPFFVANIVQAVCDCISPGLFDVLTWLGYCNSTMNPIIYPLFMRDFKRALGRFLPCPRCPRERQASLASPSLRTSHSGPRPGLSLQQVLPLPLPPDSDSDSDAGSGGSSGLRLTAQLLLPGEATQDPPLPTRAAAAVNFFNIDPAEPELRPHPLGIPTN
# Each line is one published result; not all experiments were run side by side. Values joined by “and” are separate records of one study, mostly repeats; a detail may differ. ± marks the error that the study gave.
# NR3C1: Glucocorticoid receptor (NR3C1, Homo sapiens, UniProt P04150)
Structure (SMILES),tested on,test,system,setting,how to read,quantity,result
C[C@]1(c2ccccc2)O[C@@H]2C[C@@H]3[C@@H]4CCC5=CC(=O)C=C[C@@]5(C)[C@]4(F)[C@H](O)C[C@]3(C)[C@@]2(C(=O)CO)O1,NR3C1,"nuclear translocation, agonist, enzyme fragment complementation",,,,EC50,0.00231 µM
Fc1cc(-c2ccc3c(n2)[nH]c2ccncc23)ccn1 [isotope labelled],"Microtubule-associated protein tau, paired helical filaments (MAPT, Homo sapiens, UniProt P10636)",radioligand binding,PHF tau brain homogenate,18.97 nM,higher = more binding,specific binding,11 a.u.
"CC1=Cc2ccccc2C12CCN(C1Cc3ccccc3CC1O)CC2 (single isomer, unassigned)","Vesicular acetylcholine transporter (Rattus norvegicus, UniProt Q62666)","binding, radioligand displacement",PC12 expressing VAChT,added: [3H]vesamicol,,Ki,0.016 ± 0.004 µM
Cc1ccc([C@H](CC(=O)O)NC(=O)Nc2c(O)c(C)cn(Cc3ccccc3Cl)c2=O)cc1,B-ALL cells,flow cytometry,,"1 to 25 µM, 24 to 96 h",,surface integrin alpha-6 level,no effect
CC[C@@H]1C(=O)N(C)c2cnc(Nc3ccc(C(=O)NC4CCN(C)CC4)cc3OC)nc2N1C1CCCC1,"TAF1L (Homo sapiens, UniProt Q8IZX4)",,,10 µM,,delta Tm,-0.48 ± 0.1 °C
Fc1cccc(-n2cnc3c(NCc4nc5cc(Cl)ccc5[nH]4)nc(N4CCNCC4)nc32)c1,"CSNK1A1L (Homo sapiens, UniProt Q8N752)",KINOMEscan competition binding,,10 µM,reference: control,remaining binding,2.5%
CCc1c(-c2ccccc2)nn2c(=O)cc(-c3cccc(C(=O)O)c3)[nH]c12,,,mouse,"10 mg/kg, 10 h",,plasma level,not detected
CCCCCCCC(=O)OCC(COP(=O)(O)OC1C(O)C(O)C(OP(=O)(O)O)C(OP(=O)(O)O)C1O)OC(=O)CCCCCCC (stereo not drawn),"Arf-GAP with SH3 domain, ANK repeat and PH domain-containing protein 1 (Asap1, Mus musculus, UniProt Q9QWY8)","GAP activity, activator",,"15% phosphatidylserine, added: myrArf1·GTP substrate",,EC50,8 µM
O=c1/c(=C/c2ccc(-c3cc(Cl)cc(Cl)c3)o2)sc2nc3cc(Br)cnc3n12,"DUSP3 (Homo sapiens, UniProt P51452)","phosphatase activity, inhibitor",,added: OMFP,,IC50,8.8 µM
CC(=O)O[C@H]1CC[C@@]2(C)[C@@H](CC[C@H]3[C@H]2CC(=O)[C@]2(C)[C@@H]3C[C@@H](N3CC3)[C@H]2C(C)=O)C1,NR3C1,"nuclear translocation, agonist, enzyme fragment complementation",,,,EC50,> 9 µM
CN(C)S(=O)(=O)c1cccc(-n2sc3ccccc3c2=O)c1,"Phosphoethanolamine/phosphocholine phosphatase (Homo sapiens, UniProt Q8TCT1)","enzyme activity, inhibitor",,added: phosphoethanolamine,,Ki,0.22 ± 0.01 µM
CC(C)[C@@H](C)/C=C\[C@@H](C)[C@@H]1CC[C@H]2C3=CC=C4C[C@@H](O)CC[C@]4(C)[C@H]3CC[C@]21C,NR3C1,"nuclear translocation, agonist, enzyme fragment complementation",,,,EC50,> 9 µM
O=c1/c(=C/c2ccccc2Cl)sc2nc3cc(Br)cnc3n12,"PTPN1 (Homo sapiens, UniProt P18031)","phosphatase activity, inhibitor",,added: OMFP,,IC50,> 100 µM
Cc1c(O)cc2c(c1C)O[C@](C)(CCCC(C)C)CC2,,,"athymic nude mouse, LNCaP-abl xenograft","intraperitoneal, 50 mg/kg daily, 21 days",reference: vehicle,tumour growth,inhibited
COc1cc(CC(=O)NCC(NC(=O)C(CCCNC(=O)c2cccc(I)c2)NC(=O)C(Cc2ccc(C(F)(F)P(=O)(O)O)cc2)NC(=O)c2ccc(C)c(Br)c2)C(N)=O)ccc1O (stereo not drawn),"PTPN2 (Homo sapiens, UniProt P17706)","enzyme activity, inhibitor",,,,Ki,0.6 µM
O=C(Nc1cccnn1)N1CC(Oc2ccc(-c3ccccc3F)cn2)C1,,,healthy humans,"oral, 50 to 500 mg/day, day 7, repeated daily dosing, range of means",,terminal half-life,9.6 to 18.3 h
CC(=O)O/C(=C1/C[C@H]2[C@@H]3CC=C4C[C@@H](OC(C)=O)CC[C@]4(C)[C@@H]3CC[C@]2(C)C1=O)C(F)(F)F,NR3C1,"nuclear translocation, agonist, enzyme fragment complementation",,,,EC50,> 9 µM
O=C1C(=Cc2ccc(O)c(O)c2)Oc2ccccc21,"SPHK2 (Homo sapiens, UniProt Q9NRA0)","inhibitor, TLC",,,,Ki,18 µM
CCN1CCN(Cc2ccc(NC(=O)c3ccc(C)c(Oc4ncnc5cc(OC)c(OC)cc45)c3)cc2C(F)(F)F)CC1,"TAOK3 (Homo sapiens, UniProt Q9H2K8)",KINOMEscan competition binding,,1.0 µM,,residual probe binding,0.3%
O=C(O)C(F)(F)F,"Ppara (Mus musculus, UniProt P23204)","coactivator recruitment, agonist, biolayer interferometry, measured: PGC-1alpha peptide",,"pH 7.4, 25 °C, 0.1% fatty acid-free BSA, sodium salt",,EC50,4900 µM
Nc1c(C(=O)Nc2c(F)cc(F)cc2Br)sc2nc3c(cc12)CCC3,"Copper chaperone for superoxide dismutase (CCS, Homo sapiens, UniProt O14618)","binding, FRET",,pH 7.1,,Kd,~8.2 µM
Cc1cccc(NC(=O)c2nn(Cc3cnc[nH]3)c3c2CN(C(=O)c2ccc[nH]2)CC3)c1,IDH1 R132C AML cells,Hoechst/Pyronin Y staining,,"3 µM, 7 days",,G1-phase cells,30.6 ± 8.9%
C[C@@]12CC(=O)[C@@H]3[C@@H](CCC4=CC(=O)CC[C@]43C)[C@@H]1CC=C2CC(=O)O,NR3C1,"nuclear translocation, agonist, enzyme fragment complementation",,,,EC50,> 9 µM
CC(C)[C@H]1NC(=O)[C@H]([C@@H](C)O)NC(=O)[C@@H](C)NC(=O)[C@H](CCCNC(=N)N)NC(=O)[C@@H](Cc2ccccc2)NC(=O)[C@H](Cc2ccccc2)NC1=O,20S proteasome core particle,"proteasome activity, activator",,,,EC50,4 µM
Nc1c(N=Nc2ccc(SSc3ccc(N=Nc4cc(S(=O)(=O)O)c5ccccc5c4N)cc3)cc2)cc(S(=O)(=O)O)c2ccccc12,"Cystine/glutamate transporter, with SLC3A2 (SLC7A11, Homo sapiens, UniProt Q9UPY5)","L-glutamate uptake, inhibitor",SNB-19,added: 3H-L-glutamate,,Ki,4.3 µM and ~4 µM
CS[C@]12C(=O)C[C@]3(C)[C@@H](CC[C@@]3(O)C(=O)CO)[C@@H]1CCC1=CC(=O)CC[C@]12C,NR3C1,"nuclear translocation, agonist, enzyme fragment complementation",,,,EC50,> 9 µM
CN1CCN(c2ccc3c(c2)[C@H]2C[C@H]3CCN2S(=O)(=O)c2cc(Cl)cc(Cl)c2)CC1,"HTR6 (Homo sapiens, UniProt P50406)",radioligand competition binding,,,,Ki,0.082 µM

# For quick reference, copied from above:
Structure (SMILES),tested on,test,system,setting,how to read,quantity,result
CCCCCCCC(=O)OCC(COP(=O)(O)OC1C(O)C(O)C(OP(=O)(O)O)C(OP(=O)(O)O)C1O)OC(=O)CCCCCCC (stereo not drawn),"Arf-GAP with SH3 domain, ANK repeat and PH domain-containing protein 1 (Asap1, Mus musculus, UniProt Q9QWY8)","GAP activity, activator",,"15% phosphatidylserine, added: myrArf1·GTP substrate",,EC50,8 µM
CN1CCN(c2ccc3c(c2)[C@H]2C[C@H]3CCN2S(=O)(=O)c2cc(Cl)cc(Cl)c2)CC1,"HTR6 (Homo sapiens, UniProt P50406)",radioligand competition binding,,,,Ki,0.082 µM
O=c1/c(=C/c2ccc(-c3cc(Cl)cc(Cl)c3)o2)sc2nc3cc(Br)cnc3n12,"DUSP3 (Homo sapiens, UniProt P51452)","phosphatase activity, inhibitor",,added: OMFP,,IC50,8.8 µM
Nc1c(C(=O)Nc2c(F)cc(F)cc2Br)sc2nc3c(cc12)CCC3,"Copper chaperone for superoxide dismutase (CCS, Homo sapiens, UniProt O14618)","binding, FRET",,pH 7.1,,Kd,~8.2 µM
